{"data": "Measurements collected from several papers", "note": "A part holds a random share of what one study measured."}
{"data": "Series 1", "target": "Fragile X messenger ribonucleoprotein 1, C-terminal low-complexity region (Fmr1, Mus musculus, UniProt P35922)", "technique": "RNA Bind-n-Seq", "molecule type": "RNA", "medium": "in vitro", "concentration": "200 nM", "notes": "whole 134-nt RNA, ends assumed", "together with": "150 mM LiCl", "reference": "input library", "direction": "higher = stronger binding", "each molecule": "7-deaza-guanosine replaces G", "shared flanks, not repeated": "GGGAGUUCUACAGUCCGACGAUC … UGGAAUUCUCGGGUGUCAAGG"}
{"Sequence": "CUGUGCUACACAUCGUAUGUACCGAAUCGGGGUUUUUUUGGGGUUUUUGGGGAAAAAGGGGAAAGUAUUAUGUUACGCCGUUCGGAUCUG", "log2 enrichment": 0.0196}
{"Sequence": "UGGGAGGUGGAUUUUGUUUAUUUUUUUAGCUCAUUUCCAGGGGUGGGAAUUUUUUUUUAAUAUGUUUCAUGAAUAAAGUUGUUUUUGAAA", "log2 enrichment": -0.108}
{"Sequence": "UCAAGUCCUGUGCUACACAUCGUAUGUACCGAAUCGGCCCGGGGCCCGGCCCGGAAAGUAUUAUGUUACGCCGUUCGGAUCUGCACUUCC", "log2 enrichment": -0.514}
{"Sequence": "CACAGACAACACGCAUCCACACAGACACAGAGGGAAGGGGUUGGGAUGGGGACAGGGUGCACAGCAGGGCGGGGUAGGACCCCAGCCCCU", "log2 enrichment": 1.22}
{"Sequence": "AGUCCUGUGCUACACAUCGUAUGUACCGAAUCGGGAAAAAGGAAAAAGGGGAAAAAGGAAAGUAUUAUGUUACGCCGUUCGGAUCUGCAC", "log2 enrichment": -0.911}
{"Sequence": "AAGUCCUGUGCUACACAUCGUAUGUACCGAAUCGGGUUUGGGAAAAAGGGAAAGGGAAAGUAUUAUGUUACGCCGUUCGGAUCUGCACUU", "log2 enrichment": -1.02}
{"Sequence": "CAAGUCCUGUGCUACACAUCGUAUGUACCGAAUCGGGUGGGAAAGGGUUUUUGGGAAAGUAUUAUGUUACGCCGUUCGGAUCUGCACUUC", "log2 enrichment": -1.41}
{"Sequence": "UCCUUCCUUUUUUUGUCUUAAACAUAGGACAUGGAUUUGAUUGACAUACUUUGGAGGCAAGAUAUAGAUCUUGGAGUAAGUCGAGAAGUA", "log2 enrichment": -1.64}
{"data": "Series 2", "target": "Histone acetyltransferase KAT6A, both winged helices, GST fusion (KAT6A, Homo sapiens, UniProt Q92794, residues 1-181)", "technique": "protein binding microarray", "molecule type": "double-stranded DNA, one strand shown", "medium": "in vitro", "concentration": "not given", "notes": "8-mer, flanks averaged, mean of 2 arrays, mostly near background", "reference": "not given", "direction": "higher = stronger binding", "Residues (chain)": "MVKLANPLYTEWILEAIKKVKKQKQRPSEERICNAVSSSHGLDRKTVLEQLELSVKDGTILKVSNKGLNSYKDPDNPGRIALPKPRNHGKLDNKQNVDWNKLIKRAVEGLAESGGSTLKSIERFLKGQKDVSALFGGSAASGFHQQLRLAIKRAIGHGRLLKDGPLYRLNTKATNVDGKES"}
{"Sequence": "GGCTGACC", "E-score": -0.0711}
{"Sequence": "AGGTAAAG", "E-score": -0.0847}
{"Sequence": "ATCAAATG", "E-score": 0.00291}
{"Sequence": "GCATTGCA", "E-score": -0.138}
{"Sequence": "ACGGTGCT", "E-score": 0.114}
{"Sequence": "GTAGCGAA", "E-score": 0.00777}
{"Sequence": "CCAACCGG", "E-score": 0.0453}
{"Sequence": "ACTGTGAC", "E-score": -0.0609}
{"Sequence": "GCCGTCCA", "E-score": 0.145}
{"Sequence": "TCTAAGAA", "E-score": -0.0672}
{"Sequence": "GGGATGAC", "E-score": -0.139}
{"Sequence": "ATAGCACC", "E-score": -0.0323}
{"Sequence": "GGATCGCA", "E-score": 0.0069}
{"Sequence": "AACACGAC", "E-score": -0.0999}
{"Sequence": "CATGTGTA", "E-score": 0.00573}
{"Sequence": "GAGATCAA", "E-score": -0.115}
{"Sequence": "CGAATGCC", "E-score": 0.1}
{"data": "Series 3", "target": "Interferon regulatory factor 5, full length, phosphomimetic (IRF5, Homo sapiens, UniProt Q13568-2, residues 1-514, K96S/S451D/S453D/S456D/S462D)", "technique": "protein-binding microarray", "molecule type": "double-stranded DNA, one strand shown", "medium": "in vitro", "concentration": "250 nM", "notes": "60-bp whole probe", "together with": "salmon DNA 0.4 mg/ml", "reference": "random background probes", "direction": "higher = stronger binding", "shared flanks, not repeated": "GCCTAGCAC … GTCTTGATTCGCTTGACGCTGCTG"}
{"Sequence": "TCACGGCTCGTTATCCTACTGTGCTAG", "log fluorescence": "-0.29 z-score"}
{"Sequence": "GACGGTCTCTGACTGGGGACGTGCTAG", "log fluorescence": "-0.421 z-score"}
{"Sequence": "TTAGGTCTCGGTAACGGTTAGTGCTAG", "log fluorescence": "0.617 z-score"}
{"Sequence": "TTCGATATCGGGACTGGATTAGTGCTA", "log fluorescence": "2.13 z-score"}
{"Sequence": "TTAGATATAGGGTTTCGATTAGTGCTA", "log fluorescence": "5.21 z-score"}
{"Sequence": "GACGTTTTCGGGTATCGGGACGTGCTA", "log fluorescence": "6.45 z-score"}
{"Sequence": "AGTCTTCTCCTCTAGGTTCTCGTGCTA", "log fluorescence": "0.131 z-score"}
{"Sequence": "GACGGTTTCGGGTATCGGGTCGTGCTA", "log fluorescence": "8.16 z-score"}
{"Sequence": "TTAGGTATCGTTATCGGTTAGTGCTAG", "log fluorescence": "7.59 z-score"}
{"Sequence": "TTAGGTTTCGACTTTTGGTTAGTGCTA", "log fluorescence": "7.24 z-score"}
{"Sequence": "TTAGGTATCCTGCTGCTTTAGTGCTAG", "log fluorescence": "-0.288 z-score"}
{"Sequence": "GATGGTATCGACTATCGGGACGTGCTA", "log fluorescence": "4.79 z-score"}
{"Sequence": "GACGATATCAGTCTCGAGTCGTGCTAG", "log fluorescence": "1.48 z-score"}
{"Sequence": "AGTTTTTCATTTTTTTTCATGTGCTAG", "log fluorescence": "2.13 z-score"}
{"Sequence": "CAAACACTAGTTTTTACTTTGTGCTAG", "log fluorescence": "0.404 z-score"}
{"Sequence": "GACGGACGGGGTATCGGGACGTGCTAG", "log fluorescence": "0.0765 z-score"}
{"Sequence": "GACGGTATCCTACTGCTGACGTGCTAG", "log fluorescence": "-0.0839 z-score"}
{"Sequence": "GACGGACTGGACACTCGGGACGTGCTA", "log fluorescence": "-0.608 z-score"}
{"Sequence": "TCAATTTTCTCTGTTCTACTGTGCTAG", "log fluorescence": "1.29 z-score"}
{"data": "Series 4", "target": "POU domain, class 5, transcription factor 1, POU domain (Pou5f1, Mus musculus, UniProt P20263, residues 131-289)", "technique": "Spec-seq", "molecule type": "double-stranded DNA, one strand shown", "medium": "in vitro", "concentration": "not given", "notes": "whole probe, mean of replicates", "reference": "not given", "direction": "lower = stronger binding", "shared flanks, not repeated": "GAGTCGTCTCGTCAGCAC … CCGTAGAGCACTCAGGTC", "UniProt P20263, sequence (131-289, looked up)": "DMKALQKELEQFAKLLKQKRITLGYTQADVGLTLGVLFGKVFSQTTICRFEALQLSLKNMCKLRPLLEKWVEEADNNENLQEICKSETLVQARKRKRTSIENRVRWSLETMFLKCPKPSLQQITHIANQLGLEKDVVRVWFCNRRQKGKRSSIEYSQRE"}
{"Sequence": "GAGCTAAT", "relative binding energy [ln ratio]": 0.913}
{"Sequence": "ATGCCTGG", "relative binding energy [ln ratio]": 0.747}
{"Sequence": "ATATGAAT", "relative binding energy [ln ratio]": -0.736}
{"Sequence": "ATCTAAAT", "relative binding energy [ln ratio]": -0.585}
{"Sequence": "ATCTCTAT", "relative binding energy [ln ratio]": 0.512}
{"Sequence": "CTTTTAAT", "relative binding energy [ln ratio]": 0.494}
{"Sequence": "TAATTAAT", "relative binding energy [ln ratio]": -1.88}
{"Sequence": "CCGATAAT", "relative binding energy [ln ratio]": 0.806}
{"Sequence": "TCTATAAT", "relative binding energy [ln ratio]": 0.63}
{"Sequence": "ATGCTAGG", "relative binding energy [ln ratio]": 0.601}
{"Sequence": "ATGCTGTC", "relative binding energy [ln ratio]": 0.556}
{"Sequence": "ATTATCAT", "relative binding energy [ln ratio]": -1.43}
{"Sequence": "ATAGGTAT", "relative binding energy [ln ratio]": 0.643}
{"Sequence": "CGGATAAT", "relative binding energy [ln ratio]": 0.703}
{"Sequence": "AACCTAAT", "relative binding energy [ln ratio]": 0.675}
{"Sequence": "CTGCTAAT", "relative binding energy [ln ratio]": 0.369}
{"Sequence": "ATGCGAAT", "relative binding energy [ln ratio]": -0.15}
{"Sequence": "ATTGCAAT", "relative binding energy [ln ratio]": -0.0488}
{"Sequence": "GTCGTAAT", "relative binding energy [ln ratio]": 0.536}
{"Sequence": "ATGCCTTC", "relative binding energy [ln ratio]": 0.533}
{"Sequence": "ATCTTCAT", "relative binding energy [ln ratio]": 0.295}
{"Sequence": "ATACACAT", "relative binding energy [ln ratio]": 0.0953}
{"Sequence": "TGCATAAT", "relative binding energy [ln ratio]": -1.71}
{"Sequence": "ATAGACAT", "relative binding energy [ln ratio]": 0.444}
{"Sequence": "ATTGTCAT", "relative binding energy [ln ratio]": 0.48}
